Experimental data collected from several papers.
Protocols differ between the studies behind these lines. ± gives the spread as reported.

COC1=CC(c2ccc[nH]2)=NC1=Cc1[nH]c(Cc2ccc(Cl)cc2)cc1Cc1ccc(Cl)cc1 gave an IC50 of 5.5 nM (Plasmodium falciparum; parasite growth; 7G8, chloroquine-resistant).
CCOc1ccccc1CN(OC)C(=O)CSc1c[nH]c2cccc(Br)c12 gave an IC50 of greater than 50000 nM (human coronavirus NL63; viral replication, MTS; LLC-MK2; 120 h).
With C=CCCCOP(=O)(O)Oc1c2c(c(OP(=O)(O)OCCCC=C)c3c1C1CC3c3cc4c(cc31)C1CC4c3ccccc31)C1CC2c2cc3c(cc21)C1CC3c2ccccc21 the IC50 was 13400 nM (measles virus; viral infection, flow cytometry; A549, vaccine strain GFP; 2 days, virus pre-incubated 30 min 37 °C).
CN1CCN(C(=O)N[C@@H](Cc2ccccc2)C(=O)N[C@H](/C=C/S(=O)(=O)c2ccccc2)CCc2ccccc2)CC1 gave an IC50 of greater than 100 nM (Xenotropic murine leukemia virus; viral entry; HEK-293T; pseudovirus).
For CC(C)=CCNCCOC1C2CC3CC(C2)CC1C3 (centres unmarked), the IC50 was greater than 120 µg/mL (Bacillus subtilis; microbial growth).
For COC1=CC(c2ccc[nH]2)=NC1=CNC1CCC1, the IC50 was 497 nM (Plasmodium falciparum; parasite growth; Dd2, chloroquine-resistant).
With O=P(O)(OCCc1ccccc1)Oc1c2c(c(OP(=O)(O)OCCc3ccccc3)c3c1C1CC3c3cc4c(cc31)C1CC4c3ccccc31)C1CC2c2cc3c(cc21)C1CC3c2ccccc21 the IC50 was 1900 nM (measles virus; viral infection, flow cytometry; A549, vaccine strain GFP; 2 days, virus pre-incubated 30 min 37 °C).
CCOC(=O)c1cnn2c1NN=C([N+](=O)[O-])C2(O)CC (centres unmarked) gave an IC50 of greater than 353000 nM (Enterovirus B; viral replication, inhibitor; Vero, B3; 48 h).
COc1ccc(-c2coc3cc(O)cc(O)c3c2=O)cc1 has an IC50 of 28000 nM (Human betaherpesvirus 5; viral replication, absorbance; human Fibroblast; 72 h).
CCc1ccc(COP(=O)(O)Oc2c3c(c(OP(=O)(O)OCc4ccc(CC)cc4)c4c2C2CC4c4cc5c(cc42)C2CC5c4ccccc42)C2CC3c3cc4c(cc32)C2CC4c3ccccc32)cc1 has an IC50 of 7000 nM (measles virus; viral infection, flow cytometry; A549, vaccine strain GFP; 2 days, virus pre-incubated 30 min 37 °C).
For COC1=CC(c2ccc[nH]2)=NC1=CN1CCCCC1, the IC50 was greater than 2500 nM (Plasmodium falciparum; parasite growth; 7G8, chloroquine-resistant).
CCC1(O)C([N+](=O)[O-])=NNc2nc(C)nn21 (centres unmarked) gave an IC50 of greater than 220000 nM (Enterovirus B; viral replication, inhibitor; Vero, B3; 48 h).
COC1=CC(c2ccc[nH]2)=NC1=CNC1CCCCCCC1 gave an IC50 of 7.1 nM (Plasmodium falciparum; parasite growth; Dd2, chloroquine-resistant).
CC(C)CCOP(=O)(O)Oc1c2c(c(OP(=O)(O)OCCC(C)C)c3c1C1CC3c3cc4c(cc31)C1CC4c3ccccc31)C1CC2c2cc3c(cc21)C1CC3c2ccccc21 has an IC50 of 2800 nM (measles virus; viral infection, flow cytometry; A549, vaccine strain GFP; 2 days, virus pre-incubated 30 min 37 °C).
For COC1=CC(c2ccc[nH]2)=NC1=CNC1CCCCCC1, the IC50 was 34 nM (Plasmodium falciparum; parasite growth; Dd2, chloroquine-resistant).
O=P(O)(OCc1ccccc1)Oc1c2c(c(OP(=O)(O)OCc3ccccc3)c3c1C1CC3c3cc4c(cc31)C1CC4c3ccccc31)C1CC2c2cc3c(cc21)C1CC3c2ccccc21 has an IC50 of 2700 nM (measles virus; viral infection, flow cytometry; A549, vaccine strain GFP; 2 days, virus pre-incubated 30 min 37 °C).
For CC1CC2OCOC2C(OC2CCC3(C=O)C4CCC5(C)C(C6=CC(=O)OC6)CCC5(O)C4CCC3(O)C2)O1 (centres unmarked), the IC50 was 164 ± 47 nM (transmissible gastroenteritis virus; viral replication, immunofluorescence; ST cells; 6 h post-infection, pretreated 1 h).
C#CCC(C)OP(=O)(O)Oc1c2c(c(OP(=O)(O)OC(C)CC#C)c3c1C1CC3c3cc4c(cc31)C1CC4c3ccccc31)C1CC2c2cc3c(cc21)C1CC3c2ccccc21 (centres unmarked) gave an IC50 of 28000 nM (measles virus; viral infection, flow cytometry; A549, vaccine strain GFP; 2 days, virus pre-incubated 30 min 37 °C).
For CC(C)C1=CC(=CNC23CC4CC(CC(C4)C2)C3)N=C1c1ccc[nH]1, the IC50 was 20 nM (Plasmodium falciparum; parasite growth; Dd2, chloroquine-resistant).
The IC50 of CCC1(O)C([N+](=O)[O-])=NNc2nc(C(F)(F)F)nn21 (centres unmarked) is reported as 129000 nM (Enterovirus B; viral replication, inhibitor; Vero, B3; 48 h).

Some of these lines once more:
C#CCC(C)OP(=O)(O)Oc1c2c(c(OP(=O)(O)OC(C)CC#C)c3c1C1CC3c3cc4c(cc31)C1CC4c3ccccc31)C1CC2c2cc3c(cc21)C1CC3c2ccccc21 (centres unmarked) gave an IC50 of 28000 nM (measles virus; viral infection, flow cytometry; A549, vaccine strain GFP; 2 days, virus pre-incubated 30 min 37 °C).
For CC(C)C1=CC(=CNC23CC4CC(CC(C4)C2)C3)N=C1c1ccc[nH]1, the IC50 was 20 nM (Plasmodium falciparum; parasite growth; Dd2, chloroquine-resistant).
